Measurements collected from several papers.
Numbered parts are unrelated; each lists some results of a single study. Changes are numbered by the printed parent chain.

Series 1
Target: Sal-like protein 4, full length isoform A (SALL4, Homo sapiens, UniProt Q9UJQ4, residues 1-1053)
UniProt Q9UJQ4, sequence (whole entry, looked up): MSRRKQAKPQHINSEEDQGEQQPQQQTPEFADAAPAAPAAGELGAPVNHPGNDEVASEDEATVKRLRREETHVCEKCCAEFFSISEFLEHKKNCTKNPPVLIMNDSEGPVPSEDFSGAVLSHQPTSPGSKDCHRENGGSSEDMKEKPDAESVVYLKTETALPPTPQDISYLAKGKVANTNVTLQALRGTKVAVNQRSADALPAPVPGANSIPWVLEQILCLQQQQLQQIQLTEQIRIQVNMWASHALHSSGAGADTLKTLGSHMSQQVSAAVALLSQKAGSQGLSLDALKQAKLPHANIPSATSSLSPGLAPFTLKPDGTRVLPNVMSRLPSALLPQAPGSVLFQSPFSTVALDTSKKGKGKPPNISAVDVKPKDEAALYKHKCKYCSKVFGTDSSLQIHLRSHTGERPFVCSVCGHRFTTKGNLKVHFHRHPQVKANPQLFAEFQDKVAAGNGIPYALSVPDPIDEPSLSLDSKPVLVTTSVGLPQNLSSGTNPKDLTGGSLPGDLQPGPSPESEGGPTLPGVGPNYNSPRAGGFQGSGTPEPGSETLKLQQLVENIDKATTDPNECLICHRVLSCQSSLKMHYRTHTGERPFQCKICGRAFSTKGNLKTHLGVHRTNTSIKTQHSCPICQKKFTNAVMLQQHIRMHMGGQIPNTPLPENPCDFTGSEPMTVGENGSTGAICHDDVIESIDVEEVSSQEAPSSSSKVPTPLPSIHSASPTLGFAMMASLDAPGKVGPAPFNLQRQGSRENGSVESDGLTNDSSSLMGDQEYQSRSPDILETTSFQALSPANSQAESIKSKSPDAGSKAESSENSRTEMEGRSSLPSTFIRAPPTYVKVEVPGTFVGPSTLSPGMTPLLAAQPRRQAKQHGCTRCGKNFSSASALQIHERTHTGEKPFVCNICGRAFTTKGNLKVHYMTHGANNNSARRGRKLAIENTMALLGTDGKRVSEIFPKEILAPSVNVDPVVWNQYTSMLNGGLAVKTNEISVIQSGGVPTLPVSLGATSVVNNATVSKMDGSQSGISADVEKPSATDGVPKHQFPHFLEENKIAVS
Technique: universal PBM
Form: double-stranded DNA, one strand shown
Medium: in vitro
Tested at: 600 nM
Notes: 8-mer, flanks averaged, mean of replicates
Reading: higher = stronger binding
Strand	E-score
CTGGTCAC	-0.246
AAGCTGCA	-0.0528
AAAAAAAG	0.258
GGGAAGTA	0.0679
GGATGAAA	0.0643
CATCGGAC	-0.281
CGCGTATA	0.075
CACCAGTC	-0.387
GATTGCAC	0.106
AGAGATAC	0.0696
AGTGGTGA	-0.0138

Series 2
Target: RING finger protein unkempt homolog, zinc fingers 1-6, GST-SBP tag (UNK, Homo sapiens, UniProt Q9C0B0, residues 30-357)
UniProt Q9C0B0, sequence (30-357, looked up): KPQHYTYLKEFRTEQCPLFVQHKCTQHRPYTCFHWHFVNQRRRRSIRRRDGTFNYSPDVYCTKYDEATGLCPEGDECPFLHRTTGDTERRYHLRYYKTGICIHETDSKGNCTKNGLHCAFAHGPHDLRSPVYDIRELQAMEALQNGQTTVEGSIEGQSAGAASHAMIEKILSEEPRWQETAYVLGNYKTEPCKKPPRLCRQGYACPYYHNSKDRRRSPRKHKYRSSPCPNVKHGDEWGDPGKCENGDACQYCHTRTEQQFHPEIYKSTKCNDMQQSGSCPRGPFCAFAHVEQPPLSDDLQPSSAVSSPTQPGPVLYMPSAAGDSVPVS
Technique: RNA Bind-n-Seq
Form: RNA
Medium: in vitro
Tested at: not given
Notes: RNA with constant flanks, human and mouse sites, ends assumed
Reference: input RNA pool
Reading: higher = stronger binding
Constant ends, left off below: GGGAGUUCUACAGUCCGACGAUC … CAACAGAGGAUUGAGCAUCA
Strand	bound/input enrichment [ratio]
GAGGAGUUAGAUACCUUAUUAAGCAAUUUUUGUGAACUCUCCACUCCUGGAGGUGUAGAGAAUAGUUAUGGGAAAAUAAACAUCUUACUUCAAACUUAUAUCAGCCGAGGAGAAAUGGAC	2.65
AACAUUUUUGUCAGGAUUAUUUCCCGUAAAAACGUAGUGAGCACUUUUCAUAUACUAAUUUAGUUGUACAUUUAACUUUGUAUAAUACAGAAAUCUAAAUAUAUUUAAUGAAUUCAAGCA	3.74
GCGCCGGCUCUUGUCCCACUAGGAGCAGCUCAGAGCCGCGGGGACAGGGCGAAGCGGCCUGCGCCCACGGAGCGCACGUCUCUGUUCUCAACGCAGCACCACCCUUGCCCCCCUCGGCUG	0.297
CUGAAGCCCAUGUUGCAGCGGGACUUUAUCACUGCUUUACCAGAGCAAGGCUUAGAUCACAUAGCAGAAAACAUUCUCUCCUACCUGGAUGCCAGGUCUCUGUGUGCAGCAGAGCUGGUG	0.171
AGAAAACAACCAAAACAAUUCCAAUGAAAAUUUUAGUAACAAUUGUUUAUUUUGAGGGUAUUUGUUCAUAACAUUAAAACAAUAAAGGGCUCAUAAUAAAUAAAUAUAUUUUUGACACAA	1.99
AAUGUAGAUUUUUGCUUUUCCUGUUUUUGUUUUGAAAAGUUACUCCAAUUGCUAAAUUGGUAGUUUUUUUGUCCUUAUAAAUAUAACAUUUAAAAAAGAUACACAAUUAUAUAAAAUGUU	3.87
UCGCUGCUGGACCUGCUGGAGUGCUCCGUGUGUCUGGAGCGCCUGGACACCACGGCCAAGGUGCUGCCAUGCCAACACACUUUCUGCCGCCGCUGCCUGGAGAGCAUCGUGUGCUCGCGC	0.0601
UCGUUUGGGUCACCAGGCUUCCCAGUGAAUAACAGCAGCAGCAGUACUGUUCAGAACUUUAGUUUUAAAACAAGCCCUGGACUUGCCACUCCUCCUUCCGGAAGCACUUCAGUAUUUGGA	0.306
CCAAAAAAAGGGCCCCAAAAGUUCUUGGCAGCACCCUUGUGGUUGGUUUGCUUGUAGGAAUGGGAUAUUUUGCAUUUAUGCUUUUCAGAAGGAGACUUGGCAGCAUGAUAUUAGCACUUA	0.588
CAGGAAGAUAUCGAUCCUCAGAAGGUUGCAUUUCUCCUCCACAAACAGUGGACUAUAUAUAGUUUAACUCCCUUGUAUAAAUUCUCCUAUUCUAAUCUCAAAGACUAUUCUAGACUUCUA	1.37
UUUGUUACCUCCCCAAGCCCUGAUAACCUCCAUACUCUGUUUGAAUUUGUAUUUAAAGGAUUUGAUGCUCUGCAAUAUCAGGAACAUCUGGAUUAUGAGAUUAUCCAGUCUCUAAAUCCU	0.642

Series 3
Target: CCNE1, cyclin fold, Cln2 fusion (human)
Technique: yeast growth competition, sequencing
Medium: yeast
Notes: weak parent motif
Reference: not given
Reading: higher = stronger binding
Starting sequence: ORC1 docking peptide (human); PRARKRLELGNLG
Change	normalised enrichment score
R4E	0.895
R6W	0.172
K5F	1.06
L7N	-0.546
G13T	-0.589
K5R L9F	6.02
E8F	0.816
K5C	0.3
G13F	0.361
E8R	0.312

Other studies, line by line
Substance	target	assay	test system	setting	scale	quantity	value
PhoQ, residues 284 288 289 292 302 303 SNSSNI	PhoP, residues 12 14 15 18 19 GHCSL (Escherichia coli, UniProt P23836)	Sort-seq, refers to: YFP reporter	E. coli	PhoQ-PhoP variant library, with: 10 µM Mg2+	reference: high Mg2+ state, higher = stronger signaling	fold induction	6.95

Excerpt of the above (series 1):
Strand	E-score
CTGGTCAC	-0.246
AAGCTGCA	-0.0528
AAAAAAAG	0.258
